Results from different studies.
Every numbered part comes from another study and shows a few of its results, in no order.
Sequence of UniProt P00742 (whole entry, looked up): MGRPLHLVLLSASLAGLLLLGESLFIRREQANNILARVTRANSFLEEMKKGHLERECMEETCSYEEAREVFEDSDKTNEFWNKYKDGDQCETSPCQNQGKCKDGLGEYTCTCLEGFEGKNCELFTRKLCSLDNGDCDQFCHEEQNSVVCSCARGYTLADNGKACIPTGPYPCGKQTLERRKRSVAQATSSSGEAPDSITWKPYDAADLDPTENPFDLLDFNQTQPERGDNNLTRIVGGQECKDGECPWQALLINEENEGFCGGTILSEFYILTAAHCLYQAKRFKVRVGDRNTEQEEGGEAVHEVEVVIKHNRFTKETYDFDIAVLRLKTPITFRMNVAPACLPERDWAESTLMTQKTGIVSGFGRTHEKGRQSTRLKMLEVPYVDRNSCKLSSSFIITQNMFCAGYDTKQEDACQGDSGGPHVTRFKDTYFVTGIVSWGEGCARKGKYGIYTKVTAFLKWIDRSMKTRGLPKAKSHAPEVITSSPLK
Sequence of UniProt Q9Y337 (whole entry, looked up): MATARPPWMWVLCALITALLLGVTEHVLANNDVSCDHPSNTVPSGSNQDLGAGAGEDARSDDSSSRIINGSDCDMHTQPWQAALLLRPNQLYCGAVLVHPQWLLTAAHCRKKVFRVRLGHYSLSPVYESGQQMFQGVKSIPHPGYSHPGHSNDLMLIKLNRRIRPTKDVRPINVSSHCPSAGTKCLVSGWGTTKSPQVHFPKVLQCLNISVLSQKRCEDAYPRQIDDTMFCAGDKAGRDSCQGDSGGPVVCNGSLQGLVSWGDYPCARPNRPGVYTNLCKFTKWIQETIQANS
Sequence of UniProt Q00534 (whole entry, looked up): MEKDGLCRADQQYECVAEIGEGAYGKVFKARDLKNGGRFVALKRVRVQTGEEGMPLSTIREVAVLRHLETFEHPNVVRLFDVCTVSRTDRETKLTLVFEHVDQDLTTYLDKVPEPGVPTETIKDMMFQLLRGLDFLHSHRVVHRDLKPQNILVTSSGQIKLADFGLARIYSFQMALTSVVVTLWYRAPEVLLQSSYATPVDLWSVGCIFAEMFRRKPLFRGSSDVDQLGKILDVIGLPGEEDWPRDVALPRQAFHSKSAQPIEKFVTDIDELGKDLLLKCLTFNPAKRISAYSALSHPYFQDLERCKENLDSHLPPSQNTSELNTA
Sequence of UniProt Q9UKR3 (whole entry, looked up): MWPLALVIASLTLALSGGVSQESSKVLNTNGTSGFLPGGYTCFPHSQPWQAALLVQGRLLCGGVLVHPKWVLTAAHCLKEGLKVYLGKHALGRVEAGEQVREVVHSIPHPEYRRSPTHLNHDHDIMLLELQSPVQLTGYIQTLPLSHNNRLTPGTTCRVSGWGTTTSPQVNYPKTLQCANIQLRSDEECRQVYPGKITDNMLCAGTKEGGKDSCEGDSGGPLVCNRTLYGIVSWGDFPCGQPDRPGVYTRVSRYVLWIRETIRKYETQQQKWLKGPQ
Sequence of UniProt P03952 (whole entry, looked up): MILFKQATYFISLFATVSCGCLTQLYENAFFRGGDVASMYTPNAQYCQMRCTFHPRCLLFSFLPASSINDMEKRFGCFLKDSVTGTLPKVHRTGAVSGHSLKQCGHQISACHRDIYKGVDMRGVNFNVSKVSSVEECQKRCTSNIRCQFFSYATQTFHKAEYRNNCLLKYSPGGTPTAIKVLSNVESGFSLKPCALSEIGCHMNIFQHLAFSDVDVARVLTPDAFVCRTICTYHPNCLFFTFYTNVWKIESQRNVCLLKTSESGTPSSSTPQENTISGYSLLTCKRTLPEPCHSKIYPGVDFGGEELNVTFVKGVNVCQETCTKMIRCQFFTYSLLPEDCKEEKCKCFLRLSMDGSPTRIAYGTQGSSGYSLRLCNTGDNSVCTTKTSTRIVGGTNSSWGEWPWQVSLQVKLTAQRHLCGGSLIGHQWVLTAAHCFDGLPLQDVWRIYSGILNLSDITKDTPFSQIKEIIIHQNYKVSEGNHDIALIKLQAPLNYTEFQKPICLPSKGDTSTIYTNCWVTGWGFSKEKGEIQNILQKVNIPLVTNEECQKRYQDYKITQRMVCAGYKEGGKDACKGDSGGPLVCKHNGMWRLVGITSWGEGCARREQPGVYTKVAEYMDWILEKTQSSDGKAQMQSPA
Sequence of UniProt Q96NX5 (whole entry, looked up): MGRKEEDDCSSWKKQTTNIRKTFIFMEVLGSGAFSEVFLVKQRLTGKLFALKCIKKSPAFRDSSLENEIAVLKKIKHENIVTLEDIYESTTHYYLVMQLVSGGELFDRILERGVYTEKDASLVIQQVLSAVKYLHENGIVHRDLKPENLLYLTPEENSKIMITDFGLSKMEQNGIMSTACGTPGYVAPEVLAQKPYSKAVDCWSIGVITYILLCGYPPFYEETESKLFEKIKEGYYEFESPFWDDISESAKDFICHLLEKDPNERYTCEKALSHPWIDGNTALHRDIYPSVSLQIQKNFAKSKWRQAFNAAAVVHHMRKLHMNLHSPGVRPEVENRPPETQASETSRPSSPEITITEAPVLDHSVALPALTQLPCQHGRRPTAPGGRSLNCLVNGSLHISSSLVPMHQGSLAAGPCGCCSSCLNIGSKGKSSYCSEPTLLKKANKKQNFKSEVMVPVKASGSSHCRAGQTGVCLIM
Sequence of UniProt P00747 (whole entry, looked up): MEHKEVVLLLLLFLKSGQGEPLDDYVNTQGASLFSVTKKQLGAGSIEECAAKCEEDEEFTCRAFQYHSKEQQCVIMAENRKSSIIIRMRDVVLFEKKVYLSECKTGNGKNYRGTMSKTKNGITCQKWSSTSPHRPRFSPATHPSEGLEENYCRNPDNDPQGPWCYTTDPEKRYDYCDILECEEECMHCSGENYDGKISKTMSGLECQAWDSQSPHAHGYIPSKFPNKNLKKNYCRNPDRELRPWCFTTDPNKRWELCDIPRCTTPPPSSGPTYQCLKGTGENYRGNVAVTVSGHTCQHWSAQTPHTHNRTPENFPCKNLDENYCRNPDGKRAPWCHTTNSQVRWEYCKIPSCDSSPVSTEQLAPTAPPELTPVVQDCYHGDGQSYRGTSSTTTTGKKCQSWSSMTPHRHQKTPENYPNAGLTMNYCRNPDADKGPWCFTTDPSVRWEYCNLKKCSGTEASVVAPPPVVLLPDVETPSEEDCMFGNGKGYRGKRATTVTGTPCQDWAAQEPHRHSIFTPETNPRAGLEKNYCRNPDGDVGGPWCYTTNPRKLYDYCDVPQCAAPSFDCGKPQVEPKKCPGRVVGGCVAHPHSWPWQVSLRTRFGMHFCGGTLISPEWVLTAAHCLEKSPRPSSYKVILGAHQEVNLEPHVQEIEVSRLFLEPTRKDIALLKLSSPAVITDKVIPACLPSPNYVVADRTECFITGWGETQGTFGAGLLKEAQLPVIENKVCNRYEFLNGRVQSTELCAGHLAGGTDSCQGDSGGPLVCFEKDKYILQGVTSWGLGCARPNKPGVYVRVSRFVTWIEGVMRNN
Sequence of UniProt Q9H3Y6 (whole entry, looked up): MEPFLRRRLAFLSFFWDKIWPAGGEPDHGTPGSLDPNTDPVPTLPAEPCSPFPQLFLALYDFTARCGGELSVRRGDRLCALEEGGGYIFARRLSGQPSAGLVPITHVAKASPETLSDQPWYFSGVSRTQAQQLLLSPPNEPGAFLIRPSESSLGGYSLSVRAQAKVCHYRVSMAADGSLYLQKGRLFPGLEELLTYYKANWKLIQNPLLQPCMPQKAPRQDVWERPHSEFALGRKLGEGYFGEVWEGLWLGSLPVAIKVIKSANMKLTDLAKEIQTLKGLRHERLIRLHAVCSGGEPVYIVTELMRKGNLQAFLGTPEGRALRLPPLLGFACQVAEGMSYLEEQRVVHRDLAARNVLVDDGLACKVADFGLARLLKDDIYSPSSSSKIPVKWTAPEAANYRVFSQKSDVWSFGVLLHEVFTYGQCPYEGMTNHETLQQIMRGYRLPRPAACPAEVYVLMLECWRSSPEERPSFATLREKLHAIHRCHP
Sequence of UniProt P08709 (whole entry, looked up): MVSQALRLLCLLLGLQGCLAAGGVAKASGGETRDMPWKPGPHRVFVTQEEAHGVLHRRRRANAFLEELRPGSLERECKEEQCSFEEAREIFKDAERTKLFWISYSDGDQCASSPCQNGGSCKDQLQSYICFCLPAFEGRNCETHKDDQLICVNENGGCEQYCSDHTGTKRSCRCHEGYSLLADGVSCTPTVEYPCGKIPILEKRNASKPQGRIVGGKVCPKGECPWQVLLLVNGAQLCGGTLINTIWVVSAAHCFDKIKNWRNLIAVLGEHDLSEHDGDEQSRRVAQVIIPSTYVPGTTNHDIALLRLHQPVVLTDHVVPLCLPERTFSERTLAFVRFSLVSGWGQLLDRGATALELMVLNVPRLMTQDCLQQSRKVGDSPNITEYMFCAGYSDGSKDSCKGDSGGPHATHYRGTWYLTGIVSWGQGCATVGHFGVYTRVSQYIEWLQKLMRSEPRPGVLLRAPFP

Series 1 — mode: inhibitor; concentration: 10 µM; relative to: control; quantity: remaining activity
Target: Diamine acetyltransferase 1 (Homo sapiens, UniProt P21673)
Target sequence (P21673 1-171): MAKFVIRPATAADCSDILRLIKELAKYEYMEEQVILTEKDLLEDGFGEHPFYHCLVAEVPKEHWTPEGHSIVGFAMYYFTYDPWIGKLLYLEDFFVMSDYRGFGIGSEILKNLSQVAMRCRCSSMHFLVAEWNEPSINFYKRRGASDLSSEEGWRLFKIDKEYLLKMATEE
O=c1ccc2cc3ccoc3c(O)c2o1: 99.9%
COc1c(O)cc2c3c1-c1ccccc1C[C@H]3N(C)CC2: 85.9%
COc1ccc(C=O)cc1O: 110%
C=CCSSCC=C: 92.1%

Series 2 — SMILES: CC(C)(C)c1cc(C=C(C#N)C#N)cc(Br)c1O; effect on: enzyme activity; mode: inhibitor; concentration: 0.5 µM; quantity: remaining activity
Calcium/calmodulin-dependent protein kinase type 1G (CAMK1G, Homo sapiens, UniProt Q96NX5): 104%
Tyrosine-protein kinase Srms (SRMS, Homo sapiens, UniProt Q9H3Y6); relative to: control: 98.4%
Cyclin-dependent kinase 6, with cyclin D3 (CDK6, Homo sapiens, UniProt Q00534): 89.3%

Series 3 — quantity: IC50
SMILES: CN(C)C(=O)COC(=O)Cc1ccc(OC(=O)c2ccc(NC(=N)N)cc2)cc1
Coagulation factor X (F10, Homo sapiens, UniProt P00742): 9910 nM
Plasminogen (PLG, Homo sapiens, UniProt P00747): 5.62 nM
Kallikrein-5 (Homo sapiens, UniProt Q9Y337): 1010 nM
Kallikrein-13 (Homo sapiens, UniProt Q9UKR3): 845 nM
Plasma kallikrein (KLKB1, Homo sapiens, UniProt P03952): 0.836 nM
Coagulation factor VII (F7, Homo sapiens, UniProt P08709): 3540 nM
trypsin; enzyme activity, inhibitor: 0.524 nM

Single results of other studies
Cc1ncsc1-c1ccc(CNC(=O)[C@@H]2C[C@@H](O)CN2C(=O)[C@@H](NC(=O)CCCCCNC(=O)Cc2ccccc2)C(C)(C)C)cc1 — logD (1,9-decadiene/water) (linear regression of PRP log k'): -2.34
